Values quoted from earlier work that unrelated publications cite.
Each line is one published result; not all experiments were run side by side. ± gives the spread as reported.

NC1=NC2=NC(CCCCCCC(=O)N[C@H](CCC(=O)O)C(=O)O)=CC2C(=O)N1 (stereo partly drawn) — IC50 (KB; cell proliferation, inhibitor): 0.0079 ± 0.00072 µM
Nc1nc2c(nc(Sc3ccc(Cl)cc3)n2C2O[C@@H]3COP(=O)(O)O[C@H]3[C@H]2O)c(=O)[nH]1 (stereo in doubt) — Km or Ki (PDE6; cyclic nucleotide hydrolysis, substrate or inhibitor, isothermal titration calorimetry): 41.3 µM
CC(C)(O)c1cc2nn(CCS(C)(=O)=O)cc2cc1NC(=O)c1cccc(C(F)(F)F)n1 — IC50 (mouse splenic cells; TNF-alpha secretion, inhibitor; 24 h, together with: LPS 1 µg/mL): 0.385 µM
C[C@@]12CC[C@H]3c4ccc(O)cc4CC[C@@H]3[C@H]1CC[C@H]2O (single isomer, unassigned) — EC50 (HT-22; cell protection; together with: glutamate 20 mM): 1.17 µM
C/C(=C/Cc1c(O)cc2oc(C)cc(=O)c2c1O)CO — IC50 (human neutrophils; elastase release; together with: fMLF): 11.6 µM
COC(=O)c1ccc(-n2cc(CCCOS(=O)(=O)c3ccc(C)cc3)nn2)cc1 — IC50 (hepatoblastoma cells; cell proliferation): > 50 µM
Cc1cc2ccc3c(c2cc1O)CCC(=O)C3(C)C — IC50 (neutrophils; superoxide production; together with: fMLF): 4.4 µM
CC(=O)O[C@H]1Cc2ccccc2N(C(N)=O)c2ccccc21 — focal seizure threshold increase (afterdischarge threshold; mouse kindling model; i.p., 200 mg/kg, 15 min before stimulation): > 289%
COc1ccc(N(C)c2nc(C)nc3[nH]ccc23)cc1 — IC50 (HeLa expressing WT βIII-tubulin; cell growth): 0.186 ± 0.021 µM
Nc1nc2[nH]c(CCCCCCc3ccc(C(=O)N[C@@H](CCC(=O)O)C(=O)O)cc3)cc2c(=O)[nH]1 — IC50 (RT16 (CHO expressing human FRα); cell growth, inhibitor): 0.162 µM
COc1ccc(CCN(C)C(=O)/C=C/c2ccc(O)cc2)cc1 — IC50 (human neutrophils; elastase release; together with: fMLF): 13.5 µM
O=c1[nH]cc(F)c(=O)[nH]1 — IC50 (A549, HeLa, CFPAC-1, SW-620; cell viability, MTT; range over cell lines): 0.08 to 8.81 µM
Cc1c(O)cc(C[C@]23C[C@H](C[C@H](C)O2)c2c4c(c(O)c(C)c2O3)CO[C@@]2(C4)C[C@@H](O)C[C@H](C)O2)c(C=O)c1O — IC50 (A549; cell growth): 22.3 µM
C=C(C)[C@H]1CC[C@@]2(C)CC[C@]3(C)C[C@H]4[C@@H](C)CC(=O)[C@H]4/C(C=O)=C\C[C@H]3[C@H]12 — IC50 (MCF7): 31 µM
COc1ccc(N(C)c2nc(C)nc3cc[nH]c23)cc1 — IC50 (MDA-MB-435; cell growth): 0.096 ± 0.005 µM
COc1ccc(Sc2cc(OC)c(OC)c(OC)c2)cc1 — IC50 (MCF7; cell growth; 96 h, 37 °C): 0.016 ± 0.005 µM
CNC1=CC(=O)c2cc(C)ncc2C1=O — IC50 (36 cancer cell lines; mean): 3.5 µM
CC(=O)c1cccc(N[C@H]2[C@H](N)[C@@](NC(=O)N(C)C)([C@H](C)O)[C@@](C)(O)[C@@]2(O)COC(=O)c2c(C)cccc2O)c1 — GI50 (NCI-H322M): 0.12 µM
C=C(C)C(O)Cc1c(O)ccc2ccc(=O)oc12 (stereo not drawn) — IC50 (human neutrophils; elastase release; together with: fMLF): 17.9 µM
C[C@H](NC(=O)Cc1cc(F)cc(F)c1)C(=O)N[C@H](C(=O)OC(C)(C)C)c1ccccc1 — IC50 (primary human neurons; amyloid beta 42 formation, measured: amyloid beta 42): 0.2 µM
O=c1c2ccccc2[se]n1-c1ccccc1 — IC50 (Kupffer cells; superoxide generation): ~10 µM
Nc1nc2c(ncn2[C@@H]2O[C@@H]3COP(=O)(O)O[C@H]3[C@H]2O)c(=O)[nH]1 — Km or Ki (PDE6; cyclic nucleotide hydrolysis, substrate or inhibitor, isothermal titration calorimetry): 10 µM
CCOC(=O)N1CCN(/[N+]([O-])=N/Oc2ccc([N+](=O)[O-])cc2[N+](=O)[O-])CC1 — IC50 (HL-60; cell growth): 0.2 to 0.5 µM
C[C@@]12CCC[C@@](C)(C(=O)O)[C@H]1CC[C@@]13C[C@@H](CC[C@H]12)[C@@](O)(CO)C3 — IC50 (human neutrophils; elastase release; together with: fMLF): 12.5 µM
COc1cc(/C=C/C(=O)NCCc2ccc(O)cc2)ccc1O — IC50 (RAW264.7; nitric oxide production; 24 h, together with: LPS 100 ng/mL): > 50 µM
Nc1nc(N)c(CCCC(C(=O)C(F)(F)F)c2ccc(C(=O)N[C@@H](CCC(=O)O)C(=O)O)cc2)c(=O)[nH]1 (stereo partly drawn) — IC50 (CCRF-CEM/MTX RFC-deficient; cell growth): > 100 µM
CC(=O)Oc1ccccc1C(=O)O — IC50 (rat brain microglia; thromboxane B2 generation; together with: Escherichia coli LPS): 3.12 to 10 µM
COC1=CC(=O)c2cc(-c3ccc(OC)c(O)c3)c3cc(O)c(OC)cc3c2C1=O — IC50 (human neutrophils; elastase release; together with: fMLF): 4.2 µM
Cc1ccc(C(=O)Nc2ccc(CN3CCN(C)CC3)c(C(F)(F)F)c2)cc1C#Cc1cnc2cccnn12 — IC50 (K562): 0.006 µM
Nc1nc2sc(CCCCc3ccc(C(=O)N[C@@H](CCC(=O)O)C(=O)O)cc3)cc2c(=O)[nH]1 — IC50 (NCI-IGROV1; cell growth; 96 h, together with: folic acid 200 nM): > 1 µM
C[C@]12CC=C3c4ccc(O)cc4CC[C@H]3[C@@H]1CC[C@@H]2O — EC50 (HT-22; cell protection; together with: iodoacetic acid 40 µM): 1.72 µM
CC[C@H](C)[C@H](N)C(=O)N[C@H](C(=O)NCC(=O)N[C@@H](CC(C)C)C(=O)N[C@@H](CCSC)C(=O)N[C@H](C(=O)NCC(=O)NCC(=O)N[C@H](C(=O)N[C@H](C(=O)N[C@H](C(=O)N[C@@H](C)C(=O)O)[C@@H](C)CC)C(C)C)C(C)C)C(C)C)[C@@H](C)CC — IC50 (PC-12, differentiated; amyloid-β42 neurotoxicity, inhibitor, measured: LDH release): 20 ± 4 µM
C=C(CO)[C@@H]1CC[C@]2(C)CC[C@]3(C)[C@H](CC[C@@H]4[C@@](C)(CC(=O)O)[C@H](C(C)(C)C(=O)O)CC[C@]43C)[C@@H]12 — IC50 (neutrophils; superoxide production; together with: fMLF): 0.12 µM
COc1ccc(-c2noc(-c3cccs3)c2C(F)(F)F)cc1OC — IC50 (MCF7; cell growth): 2.63 µM
COC1=C(OC)[C@H](O)[C@H](C/C=C(\C)CC/C=C(\C)CCC=C(C)C)[C@@H](C)C1=O — IC50 (HepG2; cell growth; 10% FBS; 72 h): 4.3 ± 0.03 µM
CC(C)C[C@H]1NC(=O)[C@H](CC(=O)O)NC(=O)CNC(=O)[C@H](CCCNC(=N)N)NC(=O)[C@H](C)NC1=O — IC50 (WM-115; cell adhesion, inhibitor; together with: immobilized CagL RGA mutant): 1.63 µM
Cc1ccc(C(C)C)cc1.F[P-](F)(F)(F)(F)F.NCCN.[Cl][Ru+] — IC50 (CH1; cell growth): 4.4 µM
Nc1ncnc2c1ncn2[C@@H]1O[C@H](CO)[C@@H](O)[C@H]1O — IC50 (HepG2; mRNA level, down-regulation, measured: PCSK9 mRNA): 18.5 µM
O=C1c2cccc3c2[C@H](CCC3)CN1[C@@H]1CN2CCC1CC2 — Vz/F (patients, plasma; oral, dose not given, netupitant-palonosetron combination, together with: cyclophosphamide 500 to 1000 mg/m^2 IV): 668 L
C=C(C)[C@@H](CC=C(C)C)C[C@@]12C[C@@H](CC=C(C)C)C(C)(C)[C@]3(C=CC(C)(C)OC3=C(C(=O)c3ccccc3)C1=O)C2=O — IC50 (human neutrophils; elastase release; together with: fMLF): 0.14 µM
O=C(Oc1ccc(-n2cccc2)cc1)[c-]1cccc1.O=C(Oc1ccc(-n2cccc2)cc1)[c-]1cccc1.[Fe+2] — IC50 (MCF-10A; cell growth): > 250 µM
C=C1C(=O)O[C@H]2[C@H]1CC/C(C)=C/CC[C@@]1(C)O[C@@H]21 — IC50 (DU-145; cell growth, inhibitor): 8.9 ± 4.6 µM
